Assay results collected from several papers.
Each numbered part is a random draw from the data of one study; scales do not carry over between parts. Substitutions count along the parent as printed.
UniProt Q15139, sequence (whole entry, looked up): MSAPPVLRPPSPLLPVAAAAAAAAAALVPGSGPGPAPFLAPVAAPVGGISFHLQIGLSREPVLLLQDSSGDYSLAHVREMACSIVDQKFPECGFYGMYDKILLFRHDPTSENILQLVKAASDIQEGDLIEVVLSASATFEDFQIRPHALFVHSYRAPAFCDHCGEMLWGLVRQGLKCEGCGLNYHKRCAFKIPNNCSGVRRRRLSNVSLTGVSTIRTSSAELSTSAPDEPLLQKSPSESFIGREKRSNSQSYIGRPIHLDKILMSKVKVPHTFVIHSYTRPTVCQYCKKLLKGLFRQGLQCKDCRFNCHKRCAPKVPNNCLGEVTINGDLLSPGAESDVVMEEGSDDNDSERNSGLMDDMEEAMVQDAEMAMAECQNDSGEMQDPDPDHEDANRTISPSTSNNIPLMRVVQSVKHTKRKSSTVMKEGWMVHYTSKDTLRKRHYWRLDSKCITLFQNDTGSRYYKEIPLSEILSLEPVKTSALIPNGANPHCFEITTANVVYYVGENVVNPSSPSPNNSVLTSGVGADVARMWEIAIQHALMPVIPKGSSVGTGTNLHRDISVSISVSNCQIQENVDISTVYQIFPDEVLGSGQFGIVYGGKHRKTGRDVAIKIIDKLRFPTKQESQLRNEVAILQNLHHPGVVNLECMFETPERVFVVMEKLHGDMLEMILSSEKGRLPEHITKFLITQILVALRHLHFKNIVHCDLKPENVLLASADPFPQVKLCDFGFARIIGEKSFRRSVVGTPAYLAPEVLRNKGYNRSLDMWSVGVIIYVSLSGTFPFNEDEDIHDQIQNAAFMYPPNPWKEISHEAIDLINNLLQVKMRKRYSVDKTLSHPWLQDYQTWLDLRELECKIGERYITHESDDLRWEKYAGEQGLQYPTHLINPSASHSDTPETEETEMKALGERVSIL

Series 1 — target: ATF3, bZIP domain (human); technique: DHFR protein complementation; matrix: yeast; reference: wild-type JUN-FOS pair; direction: higher = stronger binding
Notes: single substitutions, most at no-binding floor
Parent: JUN, bZIP domain (human); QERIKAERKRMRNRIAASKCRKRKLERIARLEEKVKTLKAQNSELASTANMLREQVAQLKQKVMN; partner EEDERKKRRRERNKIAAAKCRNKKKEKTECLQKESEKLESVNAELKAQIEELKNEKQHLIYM
Substitution | binding fitness
A49G | -0.8 natural log
A40S | -0.144 natural log
A49Q | -0.497 natural log
R30K | -0.21 natural log
K39Y | -0.532 natural log
A49Y | -0.107 natural log
E44T | -0.308 natural log
K34Q | -0.328 natural log

Series 2 — technique: protein-binding microarray; molecule type: double-stranded DNA, one strand shown; matrix: in vitro; concentration: not given; direction: higher = stronger binding
Target: Max-binding protein MNT, bHLH-zipper, MAX partner unstated (MNT, Homo sapiens, UniProt Q99583, residues 220-300)
Notes: k-mer, scored over probes, only values ≥0.25
Residues (chain): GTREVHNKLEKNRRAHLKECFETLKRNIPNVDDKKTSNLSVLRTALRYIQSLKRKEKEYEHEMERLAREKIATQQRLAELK
Oligonucleotide | E-score
CATGTGGA | 0.457
CACCTGTA | 0.272
GAACGTGA | 0.272
GCACACGC | 0.403
AGCACACG | 0.343
CACGTTAC | 0.421
GCACGCGA | 0.429
CATGTTCG | 0.266

Series 3 — target: CCNF, cyclin fold, Cln2 fusion (human); technique: yeast growth competition, sequencing; matrix: yeast; notes: strong parent motif; reference: not given; direction: higher = stronger binding
Parent: PKN2 docking peptide (human); VSAVRKLDFSDTM; partner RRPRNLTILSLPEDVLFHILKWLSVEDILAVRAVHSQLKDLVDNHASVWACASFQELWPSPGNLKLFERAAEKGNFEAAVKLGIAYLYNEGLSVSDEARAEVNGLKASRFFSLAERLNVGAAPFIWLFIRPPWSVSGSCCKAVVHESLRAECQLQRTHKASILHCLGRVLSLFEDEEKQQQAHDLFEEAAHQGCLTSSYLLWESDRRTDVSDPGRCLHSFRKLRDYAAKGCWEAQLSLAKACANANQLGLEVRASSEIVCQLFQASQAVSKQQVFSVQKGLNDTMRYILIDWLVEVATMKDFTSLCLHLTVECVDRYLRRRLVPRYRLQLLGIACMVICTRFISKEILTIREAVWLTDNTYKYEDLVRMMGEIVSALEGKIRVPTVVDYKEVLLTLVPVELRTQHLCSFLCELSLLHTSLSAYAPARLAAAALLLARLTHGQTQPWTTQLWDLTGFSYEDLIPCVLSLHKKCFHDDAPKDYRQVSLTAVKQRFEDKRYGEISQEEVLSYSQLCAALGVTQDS
Substitution | normalised enrichment score
VSAVRKLGFSDTM [D8G] | 6.19
VLAVRKLDFSDTM [S2L] | 7.3
VSAVRKLDFSDQM [T12Q] | 7.08
VSAVRKLHFSDTM [D8H] | 7.96
VSAVRRLDFSDTM [K6R] | 7.55
VSAVRKSDFSDTM [L7S] | -0.12
VSAVWKLDFSDTM [R5W] | 0.217
VSAVEKLDFSDTM [R5E] | -0.381

Single results of other studies
Compound | target | observed | action | concentration | reference | quantity | result
CN(C)CCCn1cc(C2=C(c3c[nH]c4ccccc34)C(=O)NC2=O)c2ccccc21 | Serine/threonine-protein kinase D1 (PRKD1, Homo sapiens, UniProt Q15139) | enzyme activity | inhibitor | 0.5 µM | control | remaining activity | 71.6%

For quick reference, copied from above (series 2):
Oligonucleotide | E-score
AGCACACG | 0.343
CACGTTAC | 0.421
GCACGCGA | 0.429
